Measurements of several laboratories.
Parts stem from different laboratories: compare values within a part only.

Sample 1
Target: Sal-like protein 4, full length isoform B (SALL4, Homo sapiens, UniProt Q9UJQ4-2, residues 1-616)
Technique: universal PBM
Molecule type: double-stranded DNA, one strand shown
Sample: in vitro
Concentration: not given
Setting: 8-mer, flanks averaged, mean of replicates
Reading: higher = stronger binding
Endpoint: E-score
Target sequence (chain): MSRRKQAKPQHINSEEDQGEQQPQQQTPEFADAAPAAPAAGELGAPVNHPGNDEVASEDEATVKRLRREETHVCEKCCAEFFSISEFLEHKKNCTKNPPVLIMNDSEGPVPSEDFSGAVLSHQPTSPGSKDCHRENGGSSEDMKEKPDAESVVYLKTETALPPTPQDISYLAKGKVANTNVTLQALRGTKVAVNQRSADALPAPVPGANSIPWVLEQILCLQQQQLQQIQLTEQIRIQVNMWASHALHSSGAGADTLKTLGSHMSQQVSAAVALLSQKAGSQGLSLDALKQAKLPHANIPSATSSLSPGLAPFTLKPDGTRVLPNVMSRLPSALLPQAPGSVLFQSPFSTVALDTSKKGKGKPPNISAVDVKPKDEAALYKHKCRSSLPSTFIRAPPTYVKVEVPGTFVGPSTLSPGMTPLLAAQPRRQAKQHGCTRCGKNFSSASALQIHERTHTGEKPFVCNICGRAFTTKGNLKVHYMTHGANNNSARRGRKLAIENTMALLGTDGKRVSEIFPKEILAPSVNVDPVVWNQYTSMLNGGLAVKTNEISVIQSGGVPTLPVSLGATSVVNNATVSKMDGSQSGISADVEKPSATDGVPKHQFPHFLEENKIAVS
CTTCTCTC: -0.0553
TCCATGGA: 0.00683
ACCTGACT: 2e-05
CTAGCAAC: 0.108
AAGGAAGT: 0.0169
AAGAGTCG: -0.0544
GAATTCTA: 0.137
CGTCCAAA: 0.0353

Sample 2
Target: Serine/threonine-protein kinase N2 (PKN2, Homo sapiens, UniProt Q16513)
Sequence of UniProt Q16513 (whole entry, looked up): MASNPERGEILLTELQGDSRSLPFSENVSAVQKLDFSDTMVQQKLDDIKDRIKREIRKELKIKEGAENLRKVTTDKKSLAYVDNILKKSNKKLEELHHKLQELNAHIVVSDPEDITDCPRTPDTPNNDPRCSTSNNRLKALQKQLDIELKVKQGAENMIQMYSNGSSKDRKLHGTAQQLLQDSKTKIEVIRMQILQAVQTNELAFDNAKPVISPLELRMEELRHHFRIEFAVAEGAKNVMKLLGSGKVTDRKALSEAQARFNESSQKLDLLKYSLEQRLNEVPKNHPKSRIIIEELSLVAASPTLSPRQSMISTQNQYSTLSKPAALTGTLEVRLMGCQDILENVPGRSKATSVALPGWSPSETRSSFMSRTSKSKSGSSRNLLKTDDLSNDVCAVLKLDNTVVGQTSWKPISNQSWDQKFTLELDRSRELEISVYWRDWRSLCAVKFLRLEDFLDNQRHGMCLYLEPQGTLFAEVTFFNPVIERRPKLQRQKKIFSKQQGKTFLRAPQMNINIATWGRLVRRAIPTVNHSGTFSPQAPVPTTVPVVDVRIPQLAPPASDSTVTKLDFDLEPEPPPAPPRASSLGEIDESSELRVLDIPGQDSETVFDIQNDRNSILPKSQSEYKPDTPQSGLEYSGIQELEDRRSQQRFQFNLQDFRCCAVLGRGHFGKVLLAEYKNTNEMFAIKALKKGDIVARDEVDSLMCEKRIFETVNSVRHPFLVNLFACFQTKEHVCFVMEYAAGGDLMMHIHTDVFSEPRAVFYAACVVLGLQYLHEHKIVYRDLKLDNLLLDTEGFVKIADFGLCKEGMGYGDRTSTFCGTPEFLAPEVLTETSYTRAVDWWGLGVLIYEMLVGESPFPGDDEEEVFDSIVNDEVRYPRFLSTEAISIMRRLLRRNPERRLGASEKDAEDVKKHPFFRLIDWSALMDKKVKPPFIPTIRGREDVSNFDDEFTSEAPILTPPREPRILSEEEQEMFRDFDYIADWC
Observed: enzyme activity
Mode: inhibitor
Concentration: 0.5 µM
Baseline: control
Endpoint: remaining activity
O=c1cc(N2CCOCC2)oc2c(-c3ccccc3)cccc12: 98.6%
N#CC(c1ccnc(NCCc2cccnc2)n1)c1nc2ccccc2s1 (stereo not shown): 99.3%
O=c1c(-c2ccc(F)cc2)c(-c2ccncc2)[nH]n1-c1ccc(Cl)cc1: 96.4%
O=C1Nc2ccccc2/C1=C\c1c(Cl)[nH]c2ccccc12: 96.3%
CCCNC(=O)Nc1ccc(Oc2ncnc3cc(OC)c(OC)cc23)cc1Cl: 99.2%
O=C1NC(=O)/C(=C/c2ccc3c(c2)OC(F)(F)O3)S1: 113%
c1cc(-c2cnn3cc(-c4ccc(OCCN5CCCCC5)cc4)cnc23)ccn1: 69.2%
COc1cc2c(N3CCN(C(=O)Nc4ccc(OC(C)C)cc4)CC3)ncnc2cc1OCCCN1CCCCC1: 110%
CC(C)n1cnc2c(Nc3cccc(Cl)c3)nc(NCCO)nc21: 90.8%
COc1ccc2c(c1)c(C1=C(c3c[nH]c4ccccc34)C(=O)NC1=O)cn2CCCN(C)C: 95%
NC(=O)c1cccc(-c2cc(Nc3ccc(OC(F)(F)F)cc3)ncn2)c1: 89.8%
O=C1NC(=O)c2c1c1c3ccccc3[nH]c1n1cncc21: 95.5%
O=Nc1c(-c2c(O)[nH]c3ccccc23)[nH]c2ccccc12: 97.8%
O=C(c1cc2cc(O)ccc2[nH]1)c1cc2cc(O)ccc2[nH]1: 97.1%
O=C1NC(=O)c2c1c1c3ccccc3[nH]c1c1[nH]c3cc(Br)ccc3c21: 88.7%
CN(C)S(=O)(=O)c1ccc2c(c1)/C(=C/c1cc3c([nH]1)CCCC3)C(=O)N2: 84.3%
O=C(c1ccccc1)c1ccc(N2CCOCC2)cc1O: 96.8%
COc1cccc(-c2cc(=O)c3ccccc3o2)c1N: 81%

Sample 3
Target: 5-hydroxytryptamine receptor 1B (HTR1B, Homo sapiens, UniProt P28222)
Sequence of UniProt P28222 (whole entry, looked up): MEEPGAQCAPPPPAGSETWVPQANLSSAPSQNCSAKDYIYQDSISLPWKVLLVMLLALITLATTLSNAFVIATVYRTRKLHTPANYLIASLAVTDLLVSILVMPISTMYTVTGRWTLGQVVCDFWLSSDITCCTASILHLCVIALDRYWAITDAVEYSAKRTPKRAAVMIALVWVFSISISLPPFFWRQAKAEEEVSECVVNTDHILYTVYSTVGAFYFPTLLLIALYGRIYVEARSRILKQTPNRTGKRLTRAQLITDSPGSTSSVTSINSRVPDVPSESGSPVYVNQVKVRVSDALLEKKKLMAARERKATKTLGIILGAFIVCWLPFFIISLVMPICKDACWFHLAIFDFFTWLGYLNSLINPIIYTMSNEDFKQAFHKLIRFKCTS
Observed: ligand displacement
Technique: radioligand
Concentration: 10 µM
Endpoint: inhibition
O=C(N[C@H]1CCCCC/C=C\C2C[C@@]2(C(=O)O)NC(=O)[C@@H]2C[C@@H](Oc3ccncc3)CN2C1=O)OC1CCCC1 (stereo partly shown): -3.04%
CC(=O)c1c(NS(C)(=O)=O)c2cc(-c3ccc(Cl)cc3)c(-c3ccc(Cl)cc3Cl)nc2n(C)c1=O: -2.36%
Cc1nc(N2CC[C@@H](O)C2)ncc1-c1cc(C(F)(F)F)cc2[nH]ncc12: 22.3%
CN1CCN(C(=O)C(C)(C)c2ccc(C(=O)Nc3cn4cc(-c5ccncc5)ccc4n3)cc2)CC1: 7.83%
O=C(O)[C@@H]1[C@@H](Cn2nnc3ccccc3c2=O)CC[C@H]1C(=O)c1ccc(OCCC2CCOCC2)cc1: 8.05%

Sample 4
Cell line: A-375
Concentration: 100 µM
Time: 36 h
Endpoint: viability
NC(CO)(CO)CO: 107%
CC1=NN(c2ccccc2)C(=O)C1: 110%
Cc1cc2c(cc1S(N)(=O)=O)S(=O)(=O)CCC2: 123%
CCCCCCCCN=c1ccn(CCCCCCCCCCn2ccc(=NCCCCCCCC)cc2)cc1: -0.221%
O=c1[nH]c(=O)n(C2CCCO2)cc1F (stereo not shown): 101%
O=c1[nH]cc(F)c(=O)[nH]1: 57.8%

Repeated from above (sample 2):
O=C(c1cc2cc(O)ccc2[nH]1)c1cc2cc(O)ccc2[nH]1: 97.1%
c1cc(-c2cnn3cc(-c4ccc(OCCN5CCCCC5)cc4)cnc23)ccn1: 69.2%
COc1cccc(-c2cc(=O)c3ccccc3o2)c1N: 81%
CCCNC(=O)Nc1ccc(Oc2ncnc3cc(OC)c(OC)cc23)cc1Cl: 99.2%
CC(C)n1cnc2c(Nc3cccc(Cl)c3)nc(NCCO)nc21: 90.8%
